Experimental data pooled from the literature.
Numbered parts are unrelated; each lists some results of a single study.

Block 1
Target: Interferon regulatory factor 3, full length, phosphomimetic (IRF3, Homo sapiens, UniProt Q14653, residues 1-427, S386D/S396D/S398D/S402D/T404D/S405D)
Technique: protein-binding microarray
Molecule type: double-stranded DNA, one strand shown
Sample: in vitro
Concentration: 2540 nM top
Setting: 60-bp whole probe
With: salmon DNA 0.4 mg/ml
Relative to: random background probes
Reading: higher = stronger binding
Shared flanks, not repeated: GCCTAGCAC … GTCTTGATTCGCTTGACGCTGCTG
Construct (chain): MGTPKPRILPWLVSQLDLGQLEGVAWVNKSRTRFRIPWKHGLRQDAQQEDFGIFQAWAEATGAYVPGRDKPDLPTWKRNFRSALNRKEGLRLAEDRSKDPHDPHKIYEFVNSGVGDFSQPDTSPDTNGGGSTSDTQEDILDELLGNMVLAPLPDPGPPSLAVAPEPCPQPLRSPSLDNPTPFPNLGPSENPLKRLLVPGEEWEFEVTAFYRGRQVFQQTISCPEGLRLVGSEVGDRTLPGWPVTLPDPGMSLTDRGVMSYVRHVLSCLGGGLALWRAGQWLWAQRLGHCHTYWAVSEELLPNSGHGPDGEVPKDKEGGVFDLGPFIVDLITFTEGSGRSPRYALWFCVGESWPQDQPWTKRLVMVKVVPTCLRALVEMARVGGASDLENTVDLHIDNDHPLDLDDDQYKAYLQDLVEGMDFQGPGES
Sequence | fitted relative affinity [z-score]
TGATTGGTTGAACATGAACTGTGCTAG | -0.102
TTAGGACTGGCCTTTCGGTTAGTGCTA | -0.294
TCAGCTTTCTCTTTCATACTGTGCTAG | 3.35
TTAGAACGGAGTTTCGATTAGTGCTAG | 2.72
GGCGATATCAGACTGGAGACGTGCTAG | -0.0532
GACGATTTCCGACTGGAGACGTGCTAG | 1.9
GACGGTCTCGGACTGGGAACGTGCTAG | 0.142
TTAGATTCCAATTTCGATTAGTGCTAG | 4.63
TTAGGTATCCACACTGGGTTAGTGCTA | 1.63
TTTGCTTTACTGATGGCCCTGTGCTAG | 0.128
CTGAGAATGGGGTTTGCAGCCGTGCTA | -1.02
GACGGTATCGACTATCGGCACGTGCTA | 0.491
TTAGAACTGCGGACTGGATTAGTGCTA | -0.584
GACGGTATCGTGTATCGGGACGTGCTA | 0.91
GACGATATCGGGTTTAGAGACGTGCTA | 0.417
GATGGTTTCGGTTTCGGGACGTGCTAG | 11.2
GCCGGTATCGACTATCGGGACGTGCTA | 0.855
GACGGACTGGACACTGCGGACGTGCTA | -0.668
TTAGATTACAGTCTCGATTAGTGCTAG | 0.791

Block 2
Target: Ras GTPase-activating protein-binding protein 1, RRM domain (G3BP1, Homo sapiens, UniProt Q13283)
UniProt Q13283, sequence (whole entry, looked up): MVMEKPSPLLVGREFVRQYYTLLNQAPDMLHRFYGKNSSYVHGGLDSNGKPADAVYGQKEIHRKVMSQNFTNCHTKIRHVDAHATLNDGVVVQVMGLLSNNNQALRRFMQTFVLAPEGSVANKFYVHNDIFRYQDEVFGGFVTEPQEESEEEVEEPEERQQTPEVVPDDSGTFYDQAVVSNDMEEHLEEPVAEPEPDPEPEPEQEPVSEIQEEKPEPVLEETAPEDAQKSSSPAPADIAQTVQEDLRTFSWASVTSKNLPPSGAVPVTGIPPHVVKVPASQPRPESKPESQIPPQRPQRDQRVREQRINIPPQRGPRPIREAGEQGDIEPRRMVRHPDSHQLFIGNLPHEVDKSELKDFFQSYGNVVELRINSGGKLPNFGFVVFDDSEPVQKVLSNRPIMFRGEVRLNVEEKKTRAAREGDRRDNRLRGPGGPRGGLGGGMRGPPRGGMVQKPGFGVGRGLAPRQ
Technique: RNA Bind-n-Seq
Molecule type: RNA
Sample: in vitro
Concentration: 1 µM
Setting: whole 134-nt RNA, ends assumed
With: 150 mM KCl
Relative to: input library
Reading: higher = stronger binding
Shared flanks, not repeated: GGGAGUUCUACAGUCCGACGAUC … UGGAAUUCUCGGGUGUCAAGG
Sequence | log2 enrichment
UGGUCCUGGUGGCAUGCGGGGAGGAAGAGGUGGCCUCAUGGAUCGUGGUGGUCCCGGUGGAAUGUUCAGAGGUGGCCGUGGUGGAGACAG | 0.442
UUCCUCAAGUCCUGUGCUACACAUCGUAUGUACCGAAUCGGCGGGCGGCGGAAAGUAUUAUGUUACGCCGUUCGGAUCUGCACUUCCAGC | -0.0329
UGAAGGCGCGGCCCUUCCCCGACGGCCUGGCCGAGGACAUCGAUAAAGGCGAGGUGUCCGCCCGUCAGGAGCUCAAGCAGCGGGCGCGCU | -0.599
GUAGAAAUUCAUGUAUAAAUGGAACCAUAUAGUACAUACAUAUCAUACUCUUAGGUCUGGCAAAUAUUUGAGGUUCAUCCAUAUUUUAUA | -0.223
CACAGACAACACGCACCCACACAGACACAGAAAGAAGGGGUUGGGAUGGGGACAGGGUGCACAGCAGGGCGGGGUAGGACCCCAGCCCCU | -0.207
UCCUGUGCUACACAUCGUAUGUACCGAAUCGGGUUUUUUUGGGAAAGGGAAAAAAAGGGAAAGUAUUAUGUUACGCCGUUCGGAUCUGCA | -0.0449
CUCAAGUCCUGUGCUACACAUCGUAUGUACCGAAUCGGGGAGGAGGGGAGGGGAAAGUAUUAUGUUACGCCGUUCGGAUCUGCACUUCCA | 0.223
CAAGUCCUGUGCUACACAUCGUAUGUACCGAAUCGGGGAAAGGGGAAAGGAAAGGAAAGUAUUAUGUUACGCCGUUCGGAUCUGCACUUC | -0.253
AAGUCCUGUGCUACACAUCGUAUGUACCGAAUCGGGGAAAAGGGGAAAAGGAAAAGGAAAGUAUUAUGUUACGCCGUUCGGAUCUGCACU | -0.15

Block 3
Target: Hepatocyte nuclear factor 3-beta, forkhead domain (FOXA2, Homo sapiens, UniProt Q9Y261, residues 142-269)
Technique: protein-binding microarray
Molecule type: double-stranded DNA, one strand shown
Sample: in vitro
Concentration: not given
Setting: k-mer, scored over probes, only values ≥0.25
Reading: higher = stronger binding
Target sequence (chain): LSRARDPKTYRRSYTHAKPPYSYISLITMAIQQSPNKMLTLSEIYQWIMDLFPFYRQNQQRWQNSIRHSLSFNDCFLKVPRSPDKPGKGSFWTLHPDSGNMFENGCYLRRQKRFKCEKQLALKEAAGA
Sequence | E-score
GAAATGAA | 0.284
GTGTATGA | 0.295
ATGTGAAG | 0.277
CATACATA | 0.347
AATACTAG | 0.255
CACTTACA | 0.311
ATATTAGG | 0.379
TATACTCA | 0.281
ACATTGAA | 0.257
ATTTGTAA | 0.342
ACACAATA | 0.363
ACATAGAC | 0.266
AATATTCA | 0.295
ATTACCTA | 0.286
ATATACAG | 0.404
ATGGTACA | 0.255
GCCATATA | 0.321
TATGAATA | 0.326
CTATACAA | 0.28

Block 4
Target: Histone acetyltransferase KAT6A, winged helix 2, GST fusion (KAT6A, Homo sapiens, UniProt Q92794, residues 85-181)
Technique: protein binding microarray
Molecule type: double-stranded DNA, one strand shown
Sample: in vitro
Concentration: not given
Setting: 8-mer, flanks averaged, mean of 2 arrays, mostly near background
Relative to: not given
Reading: higher = stronger binding
Target sequence (chain): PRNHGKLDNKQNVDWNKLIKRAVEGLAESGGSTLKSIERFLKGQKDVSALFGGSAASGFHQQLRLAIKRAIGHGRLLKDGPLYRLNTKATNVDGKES
Sequence | E-score
GCTCATCC | -0.0264
AGACGTAT | -0.271
GTTTCAGA | 0.0855
CCGAATCG | 0.117
TTCGTCAA | 0.121
ACCGCCCG | 0.192
GAGTCGAC | -0.203
CACGTCAA | -0.203
CCTCCCGC | 0.175
ACTGATGC | -0.149
GATGCTCA | 0.0149
CAAATAGC | -0.044
ACACTGGG | -0.115
GACACCGA | 0.11
GACAGCTC | -0.102
AAACGGAA | 0.0116
AGGGGCGG | 0.19
AACCCCCT | -0.124
ATTGCGTA | -0.00167
AGAAAGGA | 0.00643
TCGTGTAA | -0.072
AAGAAAGT | -0.0375
ATACCAAT | -0.164
AGTAATAC | -0.083
CTATGTAC | -0.269
